Experimental data from different studies.
Every numbered part comes from another study and shows a few of its results, in no order.

Block 1 — method: competition protein-binding microarray; molecule type: double-stranded DNA, one strand shown; matrix: in vitro; tested at: 2 µM; added: Cbf1 competitor, 0.05 µM; reading: higher = stronger binding; shared flanks, not repeated: … GTCTTGATTCGCTTGACGCTGCTG
Target: Phosphate system positive regulatory protein PHO4, full length, GST-tagged (PHO4, Saccharomyces cerevisiae, UniProt P07270, residues 1-312)
Notes: whole 60-bp probe, lowest competitor level
Construct (chain): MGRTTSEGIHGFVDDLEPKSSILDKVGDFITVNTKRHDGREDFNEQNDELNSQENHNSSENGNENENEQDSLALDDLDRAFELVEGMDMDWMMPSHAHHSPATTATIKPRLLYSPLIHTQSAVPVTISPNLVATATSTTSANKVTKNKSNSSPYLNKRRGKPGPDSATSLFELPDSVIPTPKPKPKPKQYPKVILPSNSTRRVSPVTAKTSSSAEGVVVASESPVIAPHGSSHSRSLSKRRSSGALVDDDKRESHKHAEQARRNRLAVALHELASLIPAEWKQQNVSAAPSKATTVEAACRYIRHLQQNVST
Sequence | fluorescence intensity [a.u.]
AAGGCAGAGGTTGGAAACGTGTGGAGACTCCAAATG | 11100
CACCACTTCTCAAAGAACGTGCAAATAACTCTTCCA | 14500
GTCTTGTCTCATTTTCACGTGGCCTTCCCCACTTCA | 13400
ATCATGTTCAGAACAACCGTGATGGAGAAAATGGAG | 7480
GATGCGTTGCATACCCACGTGGAACAAATGGTCAAG | 20600
CTTCTGTAAATTTTTCACGTGGCCTGACGCGCCCCG | 12100
GTCTTGTCTCATTGTGTAGTGGGTGTCCCCACTTCA | 5550
CTAACGAAGGTTTGAACGGTGGGTGACAAGCCAAGT | 3410
TACATCTTTGGCAGCCACGTTTCCCAATACATGGAA | 14500
CTTCTGTAAATTTGTCTCGTGGGTGGACGCGCCCCG | 9740
CGGGGTTAAGTTTGACTGGTGGGTGGCTTGCAGCAG | 4750
TTCAACGACAGAGGCCTTGTGACGCCCTGGAGCTTG | 3050
ATATGTATTTCATTTCACGTGATGGGCTGGGATGTT | 14400
CGTCCTAGTGATTGGCCAGTGGGTGCCATGAGGAAG | 6420
ATTTTCGAGGGTTACGTCGTGACTCGTATGCTTTCT | 5490
CGCTCCTTAGTAAAGCACGTGCCGATGATATCAATT | 20200
GGGATAGCACTCTGAAACGTGTTGAAGTCTCCTTCC | 11500
CACAAGTAGATTTGCCACGCACAACTTTAATACATG | 8280

Block 2 — method: RNA Bind-n-Seq; molecule type: RNA; matrix: in vitro; tested at: 200 nM; notes: whole 134-nt RNA, ends assumed; added: 150 mM LiCl; reference: input library; reading: higher = stronger binding; each molecule: 7-deaza-guanosine replaces G
Target: Fragile X messenger ribonucleoprotein 1, C-terminal low-complexity region (Fmr1, Mus musculus, UniProt P35922)
Shared flanks, not repeated: GGGAGUUCUACAGUCCGACGAUC … UGGAAUUCUCGGGUGUCAAGG
Sequence | log2 enrichment
CACAGACAACACGCACCCACACAGACACAGAGGGAAGGGGUUGGGAUGGGGACAGGGUGCACAAAAGGGCGGGGUAGGACCCCAGCCCCU | -0.168
UGGCCUUAUCACUCCUGGAGGCUUUUCAUCAGUGCCUGCUGGAAUGGAGACCCCUGAACUCAUUGAGCUGAGGAAGAAGAAGAUUGAGGA | -0.648
UCCUGUGCUACACAUCGUAUGUACCGAAUCGGGUUUUUUGGGGUUUUUUGGUUUUUUGGGAAAGUAUUAUGUUACGCCGUUCGGAUCUGC | -0.355
CUGUGCUACACAUCGUAUGUACCGAAUCGGGAAAAAAAGGGUUUUUUUGGGUUUUUUUGGGAAAGUAUUAUGUUACGCCGUUCGGAUCUG | -2.37
UACUCAGCACAGAAAUUCAGGAGACACAGACAAGUUCUUCCACGAUGUCGUACAGACGAGAACUAGAGAAAUACCGUGACCUGGAUGAAG | 0.0734
GUCCUGUGCUACACAUCGUAUGUACCGAAUCGGGUUUUGGGGUUUUGGGGUUUUGGGGAAAGUAUUAUGUUACGCCGUUCGGAUCUGCAC | -0.459
CAAGUCCUGUGCUACACAUCGUAUGUACCGAAUCGGGUUUUUGGGAAAGGGUGGGAAAGUAUUAUGUUACGCCGUUCGGAUCUGCACUUC | -1.02
CUCAAGUCCUGUGCUACACAUCGUAUGUACCGAAUCGGUUGGGUUGGUUGGGGAAAGUAUUAUGUUACGCCGUUCGGAUCUGCACUUCCA | -0.36
UCCUGUGCUACACAUCGUAUGUACCGAAUCGGGGAAAAAGGGGAAAAAGGGGUUUGGGGAAAGUAUUAUGUUACGCCGUUCGGAUCUGCA | -0.408
UCCUGUGCUACACAUCGUAUGUACCGAAUCAAACCCCCAAAUUUUUUUAAACCCCCAAAAAAGUAUUAUGUUACGCCGUUCGGAUCUGCA | 1.61
AAGUCCUGUGCUACACAUCGUAUGUACCGAAUCGGGAAAGGGUUUGGGAAAAAGGGAAAGUAUUAUGUUACGCCGUUCGGAUCUGCACUU | -2.09

Block 3 — method: protein binding microarray; molecule type: double-stranded DNA, one strand shown; matrix: in vitro; tested at: not given; reference: not given; reading: higher = stronger binding
Target: Histone acetyltransferase KAT6A, winged helix 2, GST fusion (KAT6A, Homo sapiens, UniProt Q92794, residues 85-181)
Notes: 8-mer, flanks averaged, mean of 2 arrays, mostly near background
Residues (chain): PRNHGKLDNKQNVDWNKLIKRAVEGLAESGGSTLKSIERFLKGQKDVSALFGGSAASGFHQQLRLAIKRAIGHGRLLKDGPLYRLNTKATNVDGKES
Sequence | E-score
GAGATTCC | -0.0951
ATAGAAGA | -0.18
ACTTTCAG | 0.0332
CAAGTATC | -0.215
GCTGGCTA | -0.23
ATCGACAA | -0.0763
AGATCGTG | -0.169
CGGATTAG | 0.0153
CATTGCAG | 0.133
AGTGAAGA | -0.121
CGGACGGA | 0.0421
AACAAAAC | 0.0352
ACTGGGCT | -0.157
GCACCAAA | 0.0381
GAGTTAGC | -0.0917
GCCAACGA | -0.0791
GAAAACAC | -0.127
CCGGCTAC | 0.101
AGGCCCCC | 0.062
AGAACCCT | -0.13

Block 4 — method: RNA Bind-n-Seq; molecule type: RNA; matrix: in vitro; tested at: not given; reference: input RNA pool; reading: higher = stronger binding
Target: RING finger protein unkempt homolog, zinc fingers 1-6, GST-SBP tag (UNK, Homo sapiens, UniProt Q9C0B0, residues 30-357)
Notes: RNA with constant flanks, human and mouse sites, ends assumed
Shared flanks, not repeated: GGGAGUUCUACAGUCCGACGAUC … CAACAGAGGAUUGAGCAUCA
Target sequence (chain): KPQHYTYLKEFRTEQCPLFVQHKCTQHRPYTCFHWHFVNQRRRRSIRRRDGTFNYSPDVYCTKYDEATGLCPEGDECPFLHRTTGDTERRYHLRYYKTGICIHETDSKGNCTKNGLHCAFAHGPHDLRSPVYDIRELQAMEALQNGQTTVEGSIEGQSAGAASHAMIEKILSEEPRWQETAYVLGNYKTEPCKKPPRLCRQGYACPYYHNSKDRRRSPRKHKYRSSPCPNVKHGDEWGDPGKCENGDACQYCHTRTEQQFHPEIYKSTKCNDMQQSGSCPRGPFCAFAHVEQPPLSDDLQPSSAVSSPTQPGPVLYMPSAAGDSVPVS
Sequence | bound/input enrichment
GUAGCAUCAACAUCUAUGAACAGAGAGUCUUCUAGAUCCCAUGCAGUCUUUACCAUCACAAUAGAAUCAAUGGAGAAGAGCAGCGAGACCGUGAACAUCCGGACCUCCUUACUCAACCUG | 0.164 ratio
CAGUUGAAGUAUCAGAGAAUCUUGGAACGAUUAGAAAAGGAGAACAAAGAAUUGAGAAAAUUAGUAUUGCAGAAAGAUGACAAAGGCAUUCAUCAUAGAAAGCUUAAGAAAUCUUUGAUU | 5.35 ratio
AUAUGCUUACCUUUUGAAUGAUCAUGGCUAUAUGUUGUUGAGAUAUUUGAAACUUACCUUGUUUUCACUUGUGCACUGUGAAUGAACUUUGUAUUAUUUUUUUAAAACCUUCACAUUACG | 0.491 ratio
AACUGGAAACCUUUUGUGUAUGGCGGCCUUGCCUCUAUUGUUGCCGAGUUCGGCACUUUCCCUGUGGAUCUUACUAAAACACGGCUGCAAGUCCAAGGCCAGAGUAUCGAUGUUCGUUUC | 0.107 ratio
AACCCCAACGCCUGCAGCUAUGGCGUGGCCGUGGGCGUGCUCGCCUUCCUCACCUGCCUGCUGUACCUGGCCCUGGACGUGUACUUCCCGCAGAUCAGCAGCGUCAAGGACCGCAAGAAA | 0.0987 ratio
GGGACUAACGGCGCCGGUGACGACUUCGCCGCGCGUUGGUCAGCCAUGGCCACCGCUCUCGCGCUACGUAGCUUGUACCGAGCGCGACCCUCGCUGCGCUGUCCGCCCGUUGAGCUUCCC | 0.059 ratio
GAGAAAUACUUCCAAUUCCAAGAAGAGGGCAAAGAAGGAGAGAACAGAGCAGUUAUCCAUUAUAGGGAUGAUGAGACCAUGUAUGUGGAAUCUAAGAAAGACAGAGUCACAGUAGUCUUC | 0.537 ratio
CUUUAAGUCUUUGAGAGGGGCCUGAAGAGCCUCCGGGCUCCUGGGACAUUGAUGUAGAGUUUUUAGUGAAGUGGGCACCUUUCUAGUCCACGGCAUUUGAAGAGAGCGAGGAGAACCAUU | 0.441 ratio
UCUUCUGAAAAGGAGGCAGCUCCAGACGCUGGUGCUGAGCCCAUCACUGCAGACAGUGACCCCGCUUAUAGUUCGAAGGUACUGCUGCUCUCUUCCCCGGGGUUGGAGGAAUUGUAUCGU | 0.182 ratio
AAAGUCCACAGUGCAGUGCCUGUCCAGUGUUCAGUGGAGUUUCUGGCACUGGUACAUCUCAAUAGGAUUUCUUUUUAAGAGUACUGUACUGUCUCUUGAAGCCAGUCAGGGACUUUUUAA | 0.255 ratio
CUUUGAAUCUAAGGGAUAUAAAAAGAACCUAAUUACAGUAGAUACAAUGAAAAUAAUGGCUAUAGAUGUUUGGACUGGAAGCAGUGUGGCCAAUAUGACUUAAAGAGACCUUAAAAUAUA | 31.7 ratio

Block 5 — method: universal PBM; molecule type: double-stranded DNA, one strand shown; matrix: in vitro; tested at: 600 nM; reading: higher = stronger binding
Target: Sal-like protein 4, full length isoform A (SALL4, Homo sapiens, UniProt Q9UJQ4, residues 1-1053)
Sequence of UniProt Q9UJQ4 (whole entry, looked up): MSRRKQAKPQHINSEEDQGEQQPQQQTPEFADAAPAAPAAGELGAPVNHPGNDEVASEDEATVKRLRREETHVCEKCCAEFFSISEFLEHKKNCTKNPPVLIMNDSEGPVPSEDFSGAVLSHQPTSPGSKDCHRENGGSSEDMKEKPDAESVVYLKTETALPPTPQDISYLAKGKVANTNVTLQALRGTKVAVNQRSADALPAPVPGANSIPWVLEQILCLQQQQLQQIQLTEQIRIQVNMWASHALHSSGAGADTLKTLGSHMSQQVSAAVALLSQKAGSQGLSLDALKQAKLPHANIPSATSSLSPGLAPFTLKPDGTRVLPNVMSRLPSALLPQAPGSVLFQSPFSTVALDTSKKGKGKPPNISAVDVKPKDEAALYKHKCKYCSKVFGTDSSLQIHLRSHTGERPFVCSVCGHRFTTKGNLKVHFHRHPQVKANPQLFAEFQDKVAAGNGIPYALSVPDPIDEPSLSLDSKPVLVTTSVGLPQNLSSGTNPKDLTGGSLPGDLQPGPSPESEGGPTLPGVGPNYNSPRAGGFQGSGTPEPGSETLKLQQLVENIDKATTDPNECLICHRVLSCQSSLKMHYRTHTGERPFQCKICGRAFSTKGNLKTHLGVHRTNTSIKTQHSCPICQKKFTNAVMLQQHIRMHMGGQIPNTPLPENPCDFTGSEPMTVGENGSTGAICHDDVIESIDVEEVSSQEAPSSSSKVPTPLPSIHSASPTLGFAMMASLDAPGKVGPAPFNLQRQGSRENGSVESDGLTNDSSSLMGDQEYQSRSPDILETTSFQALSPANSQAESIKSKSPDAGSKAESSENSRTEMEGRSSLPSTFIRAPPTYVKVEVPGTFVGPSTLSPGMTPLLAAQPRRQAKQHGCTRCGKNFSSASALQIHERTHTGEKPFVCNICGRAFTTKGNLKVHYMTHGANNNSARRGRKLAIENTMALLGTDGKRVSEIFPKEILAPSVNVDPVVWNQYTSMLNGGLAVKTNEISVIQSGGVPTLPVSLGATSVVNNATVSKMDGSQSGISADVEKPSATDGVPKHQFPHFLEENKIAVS
Notes: 8-mer, flanks averaged, mean of replicates
Sequence | E-score
GGACTAAA | -0.049
ATTTGACG | 0.116
AACCGCGC | -0.283
TGCAGTAA | 0.0738
CGGTGGCA | -0.303
GATTACAA | 0.229
AGTGAAGG | 0.098
GTACTACA | 0.168
ATCTACTA | 0.323
TCCCAACA | -0.0103
ATCGTCCC | 0.0164
GGACATCA | 0.0699
ACTCAGCC | -0.234
AGCCGACA | -0.229
ATACGTAC | 0.0851
GCTGGAAC | -0.124
CCAAGACA | 0.00799
GTCAAGGA | -0.167
GGCGTGTA | -0.0568

For quick reference, copied from above (block 3):
Sequence | E-score
AGTGAAGA | -0.121
CGGACGGA | 0.0421
AACAAAAC | 0.0352
ACTGGGCT | -0.157
